Results gathered from unrelated publications.
Each line is one published result; not all experiments were run side by side. Numbers after ± are the reported error.

SMILES	assay	system	setting	measurement	result
CCC1C=CC2CCN(C(=O)C3CCC4C=CC5(CCCN5C(=O)C(Cc5ccccc5Cl)NC(C)=O)C(=O)N43)C2C(=O)N1CC(=O)OC (stereo not drawn)	–	mouse, plasma	subcutaneous, 100 mg/kg, 24 h	plasma concentration	< 1 nM
Nc1c(S(=O)(=O)O)cc(Nc2cccc(S(N)(=O)=O)c2)c2c1C(=O)c1ccccc1C2=O	–	C57BL/6J mouse, male	intravenous, 5.0 mg/kg	plasma half-life	~1 h
Cn1cnnc1Sc1c2c(c(C#N)c3nc4ccccc4n13)CCCC2	–	C57BL/6 mouse, plasma	intravenous, 0.3 µg/g, 60 min	plasma concentration	0.1 ng/mL
O=C(N[C@@H](Cc1coc2ccccc12)B(O)O)[C@@H]1C[C@H]2CC[C@@H]1O2	–	mouse, U266B1 xenograft, plasma	oral, 0.3 to 30 mg/kg single	plasma exposure	increased
CCC1CC2C(C)=CC3C(=O)CCCC3C=CC(C)=CC2C(=O)O1 (stereo not drawn)	–	ICR mouse male, plasma	intravenous, 2 mg/kg, 5 min	plasma concentration	25.5 ± 9.9 ng/mL
CSCC[C@H](NC(=O)[C@H](CO)NC(=O)[C@@H](N)CO)C(=O)N[C@@H](CCCCN)C(=O)N[C@@H](CC(C)C)C(=O)N[C@@H](CO)C(=O)N[C@@H](Cc1ccccc1)C(=O)N[C@@H](CCCNC(=N)N)C(=O)N[C@@H](C)C(=O)N[C@@H](CCCNC(=N)N)C(=O)N[C@@H](C)C(=O)N[C@@H](Cc1ccc(O)cc1)C(=O)NCC(=O)N[C@@H](Cc1ccccc1)C(=O)N[C@@H](CCCNC(=N)N)C(=O)NCC(=O)N1CCC[C@H]1C(=O)NCC(=O)N1CCC[C@H]1C(=O)N[C@@H](CCC(N)=O)C(=O)N[C@@H](CC(C)C)C(=O)O	–	C57BL/6 mouse, fed, plasma	–	plasma half-life	~6.7 h
CCCCCCCCCCCCCCCC(=O)N[C@@H](CCC(=O)NCCCC[C@H](NC(=O)[C@H](CC(=O)O)NC(=O)[C@H](CO)NC(=O)[C@@H](NC(=O)[C@H](Cc1ccccc1)NC(=O)[C@@H](NC(=O)CNC(=O)[C@H](CCC(N)=O)NC(=O)[C@H](CO)NC(=O)[C@@H](N)Cc1c[nH]cn1)[C@@H](C)O)[C@@H](C)O)C(=O)N[C@@H](CO)C(=O)N[C@@H](CCC(=O)O)C(=O)N[C@@H](Cc1ccc(O)cc1)C(=O)N[C@@H](CC(C)C)C(=O)N[C@@H](CC(=O)O)C(=O)N[C@@H](CO)C(=O)N[C@@H](CCC(=O)O)C(=O)N[C@@H](CCCNC(=N)N)C(=O)N[C@@H](C)C(=O)N[C@@H](CCCNC(=N)N)C(=O)N[C@@H](CC(=O)O)C(=O)N[C@@H](Cc1ccccc1)C(=O)N[C@H](C(=O)N[C@@H](C)C(=O)N[C@@H](Cc1c[nH]c2ccccc12)C(=O)N[C@@H](CC(C)C)C(=O)N[C@@H](CCC(=O)O)C(=O)N[C@@H](C)C(=O)NCC(=O)NCC(=O)O)C(C)C)C(=O)O	–	diet-induced obese mouse, plasma	subcutaneous, dose not given	plasma exposure over EC50	> 10 fold
Cc1cc(C)c(-c2[nH]nc(C)c2C)cc1C(=O)N1CC(c2ccc(C#N)cc2)C1	mass spectrometry	mouse, A549 xenograft, plasma	oral, 60 mg/kg, 6 h after last dose	plasma concentration	9540 ng/mL
COc1ccc(CCNc2ncnc3sc(C)cc23)cc1OC	–	mouse, plasma	intraperitoneal, 2.6 mg/kg, within 1 h	plasma level reduction	~10 fold

Excerpt of the above:
SMILES	assay	system	setting	measurement	result
CCC1C=CC2CCN(C(=O)C3CCC4C=CC5(CCCN5C(=O)C(Cc5ccccc5Cl)NC(C)=O)C(=O)N43)C2C(=O)N1CC(=O)OC (stereo not drawn)	–	mouse, plasma	subcutaneous, 100 mg/kg, 24 h	plasma concentration	< 1 nM
